{"data": "Measured values pooled from the literature", "method": "steady-state kinetics", "B1": "TcA (Trypanosoma cruzi, UniProt Q4DRC4); chain MFIRLFAREEEGEKEGKICHMPREYEFAEKILFTEEEIRTRIKEVAKRIADDYKGKGLRPYVNPLVLISVLKGSFMFTADLCRALCDFNVPVRMEFICVSSYGEGLTSSGQVRMLLDTRHSIEGHHVLIVEDIVDTALTLNYLYHMYFTRRPASLKTVVLLDKREGRRVPFSADYVVANIPNAFVIGYGLDYDDTYRELRDIVVLRPEVYAEREAARQKKQRAIGSADTDRDAKREFHSKY", "B2": "enzyme (Thermococcus kodakarensis, UniProt Q5JID5); chain MLYVEILGNLPEMARDEVKAMLELGGGEIIGQDYLFLKVDAGEKAFPFLDRLGLAHEYGLLLVEADSVEELLQKAGEVEWPIKGAFKVDTETMANCRHDVLDLPRKLGAVIHAQGFRVNLSKPDTVVRVYCGERLYAGIRLRYFDPKDFEKRKAHHRPFFRPISLHPRVSRALVNLTKATREILDPFMGAGGILIEAGLLGLRVYGVDIRPEMVEGAETNLKHYGVRDYTLKLGDATRLEDLFPDKKFEAVATDPPYGTAATLAGRKRDELYRKALRSIYNVLEDGGRLAIAFPTDFNGKAEAEAVGFRTLGRYYQRVHKSLERYFYVFEK", "B3": "CDO (Bacillus subtilis, UniProt O32085); chain MELYECIQDIFGGLKNPSVKDLATSLKQIPNAAKLSQPYIKEPDQYAYGRNAIYRNNELEIIVINIPPNKETTVHDHGQSIGCAMVLEGKLLNSIYRSTGEHAELSNSYFVHEGECLISTKGLIHKMSNPTSERMVSLHVYSPPLEDMTVFEEQKEVLENS", "B4": "CMBL (Homo sapiens, UniProt Q96DG6); chain MANEAYPCPCDIGHRLEYGGLGREVQVEHIKAYVTKSPVDAGKAVIVIQDIFGWQLPNTRYIADMISGNGYTTIVPDFFVGQEPWDPSGDWSIFPEWLKTRNAQKIDREISAILKYLKQQCHAQKIGIVGFCWGGTAVHHLMMKYSEFRAGVSVYGIVKDSEDIYNLKNPTLFIFAENDVVIPLKDVSLLTQKLKEHCKVEYQIKTFSGQTHGFVHRKREDCSPADKPYIDEARRNLIEWLNKYM", "B5": "protein (Candidatus Protochlamydia amoebophila, UniProt A0A2P9HA01); chain KNQQNSVSSTLLILKKRSLILFQFFLIIIVYHTLKDLKDTIVITASDAGAEIIPFIKIWGMLPLAICASYFFAKFYNKFGREKTFYIFSSFLLVNYLFFAFVLYPFRKFFYLENVADYLHMILPVGAKGFVAMVSYWHYTLFYLTAELWSMLILSILFWGYVSDTTSLVEAKKFYPLCMFVGNMAGIISGQLSHFLCQHLSDFMSWERTLQWMIGIVCVCGLLIMIINRRLALTTDFSAIKQKVKKQIAPSSFKDNVMDVLRTGPLLCIAVLVVGFGLTTNLIEVIWKENIRQLHPTPQAYNAYINQLTSLIGTGAVCIALLSSWIFRKFTWTQIALTTPLCLLITSSAFFSSLLMPKELLAEIASFFQFSPTQLIVTLGSICYVFSMSAKYTIFDTSKEIAFLSIETEKRTYAKSVIDSIGSRLGKSGASCFYQFLLIAFGIASEHILLIGVVSIIMIGISIFATKKLGGQLSGKNENHRFIEASHG", "B6": "protein (UniProt A0A4Y6I1F8); chain MGSEVVSKKHEFGALEVEGIDFRASVAALGSTKKLVLGGAGFRGLEINGNLVKFTAIGIYVEEAIIPHLSPKLGGKTVEELCANELLFEEVLSAPFDKLIRVVFLLPLTGPQYSEKVVERIGLLPNPGLKEESIKQFLEIFKAENFPPRTSLVCSFTEDGLKIAFMKGPDFPEESDAVIEDKYFARAFLATIIAKDGVSPMAKLSFAERVSKYL", "note": "Each line is one published result; not all experiments were run side by side.", "UniProt Q949Q0, sequence (whole entry, looked up)": "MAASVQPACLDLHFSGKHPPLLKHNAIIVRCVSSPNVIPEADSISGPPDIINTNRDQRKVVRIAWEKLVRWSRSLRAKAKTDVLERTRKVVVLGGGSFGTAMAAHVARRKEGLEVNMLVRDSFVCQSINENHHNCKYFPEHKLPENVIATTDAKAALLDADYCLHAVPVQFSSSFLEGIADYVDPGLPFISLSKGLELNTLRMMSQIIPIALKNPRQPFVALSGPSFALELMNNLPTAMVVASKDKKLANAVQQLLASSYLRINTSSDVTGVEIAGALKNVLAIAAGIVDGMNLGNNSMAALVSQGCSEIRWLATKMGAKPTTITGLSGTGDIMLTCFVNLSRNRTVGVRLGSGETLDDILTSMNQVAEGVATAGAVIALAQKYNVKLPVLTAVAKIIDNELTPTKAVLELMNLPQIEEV", "UniProt P05181, sequence (whole entry, looked up)": "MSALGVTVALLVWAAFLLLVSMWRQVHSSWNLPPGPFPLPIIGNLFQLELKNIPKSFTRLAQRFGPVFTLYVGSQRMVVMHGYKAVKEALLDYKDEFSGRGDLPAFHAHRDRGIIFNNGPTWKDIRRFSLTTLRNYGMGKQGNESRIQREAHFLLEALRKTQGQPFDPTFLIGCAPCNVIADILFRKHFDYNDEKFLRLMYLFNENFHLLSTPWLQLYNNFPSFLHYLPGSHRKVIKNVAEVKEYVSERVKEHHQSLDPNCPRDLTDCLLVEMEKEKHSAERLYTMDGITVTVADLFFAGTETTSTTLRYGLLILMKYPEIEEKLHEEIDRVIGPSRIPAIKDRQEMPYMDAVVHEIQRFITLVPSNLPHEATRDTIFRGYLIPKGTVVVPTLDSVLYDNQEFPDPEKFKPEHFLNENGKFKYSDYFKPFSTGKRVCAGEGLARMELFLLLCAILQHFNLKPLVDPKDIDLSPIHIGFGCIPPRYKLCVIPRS", "UniProt P27306, sequence (whole entry, looked up)": "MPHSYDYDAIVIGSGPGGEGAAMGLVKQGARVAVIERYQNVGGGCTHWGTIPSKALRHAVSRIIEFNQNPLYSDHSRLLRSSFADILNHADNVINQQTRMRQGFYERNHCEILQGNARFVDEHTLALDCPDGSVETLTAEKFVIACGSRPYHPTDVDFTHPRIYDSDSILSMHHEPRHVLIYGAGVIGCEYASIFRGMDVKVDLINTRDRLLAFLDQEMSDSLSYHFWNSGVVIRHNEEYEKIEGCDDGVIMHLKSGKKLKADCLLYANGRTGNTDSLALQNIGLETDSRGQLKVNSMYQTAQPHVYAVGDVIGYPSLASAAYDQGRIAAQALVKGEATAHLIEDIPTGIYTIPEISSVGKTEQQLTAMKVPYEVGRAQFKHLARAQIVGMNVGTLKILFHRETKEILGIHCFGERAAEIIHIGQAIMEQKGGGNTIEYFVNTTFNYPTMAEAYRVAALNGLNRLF"}
{"Molecule": "CYP2E1 (Homo sapiens, UniProt P05181)", "substrate": "C=Cc1ccc(Br)cc1", "pH": "pH 7.4", "temperature": "37 °C", "Km [µM]": 39}
{"Molecule": "enzyme (Arabidopsis thaliana, UniProt Q949Q0)", "substrate": "O=C(CO)COP(=O)(O)O", "pH": "pH 7.2", "temperature": "30 °C", "notes": "apparent", "Km [µM]": 0.33}
{"Molecule": "B1 (TcA)", "substrate": "O=c1[nH]c(=O)c2[nH]cnc2[nH]1", "pH": "pH 8.3", "temperature": "37 °C", "notes": "apparent", "with": "PRPP 1 mM, MgCl2 12 mM", "Km [µM]": 160}
{"Molecule": "B2 (enzyme)", "substrate": "C[S+](CC[C@H](N)C(=O)O)C[C@H]1O[C@@H](n2cnc3c(N)ncnc32)[C@H](O)[C@@H]1O", "pH": "pH 7.5", "temperature": "50 °C", "notes": "apparent", "Km [µM]": 7}
{"Molecule": "KPR (Staphylococcus aureus, UniProt A0A0J9X283)", "substrate": "CC(C)(CO)C(=O)C(=O)O", "pH": "pH 7.5", "temperature": "25 °C", "notes": "substrate inhibition fit", "with": "NADPH 50 µM", "Km [µM]": 9.6}
{"Molecule": "B3 (CDO)", "substrate": "N[C@@H](CS)C(=O)O", "pH": "pH 6.1", "temperature": "37 °C", "with": "O2, Fe(II)", "Km [µM]": 6600}
{"Molecule": "B4 (CMBL)", "substrate": "CCCc1nc(C(C)(C)O)c(C(=O)OCc2oc(=O)oc2C)n1Cc1ccc(-c2ccccc2-c2nnn[nH]2)cc1", "matrix": "lysate", "pH": "pH 7.4", "temperature": "37 °C", "notes": "not purified", "Km [µM]": 170}
{"Molecule": "B5 (protein)", "substrate": "Nc1nc2c(ncn2[C@H]2C[C@H](O)[C@@H](COP(=O)(O)OP(=O)(O)OP(=O)(O)O)O2)c(=O)[nH]1", "pH": "pH 7", "temperature": "30 °C", "notes": "transporter, labelled substrate, apparent, not purified", "Km [µM]": 121}
{"Molecule": "B6 (protein)", "substrate": "O=C(/C=C/c1ccc(O)cc1)c1ccc(O)cc1O", "Km [µM]": 54.3}
{"Molecule": "AphC (Rhodococcus jostii, UniProt Q0S9X1)", "substrate": "Oc1ccccc1O", "pH": "pH 8", "temperature": "25 °C", "notes": "apparent", "with": "O2", "Km [µM]": 47}
{"Molecule": "sthA (Escherichia coli, UniProt P27306)", "substrate": "NC(=O)C1=CN([C@@H]2O[C@H](COP(=O)(O)OP(=O)(O)OC[C@H]3O[C@@H](n4cnc5c(N)ncnc54)[C@H](OP(=O)(O)O)[C@@H]3O)[C@@H](O)[C@H]2O)C=CC1", "pH": "pH 7.5", "temperature": "37 °C", "notes": "NaCl 150 mM", "with": "thio-NAD+ 200 µM", "Km [µM]": 32}
{"note": "Some of these lines once more:"}
{"Molecule": "KPR (Staphylococcus aureus, UniProt A0A0J9X283)", "substrate": "CC(C)(CO)C(=O)C(=O)O", "pH": "pH 7.5", "temperature": "25 °C", "notes": "substrate inhibition fit", "with": "NADPH 50 µM", "Km [µM]": 9.6}
